Measured values of several laboratories.
Protocols differ between the studies behind these lines. ± marks the error that the study gave.

COc1cc(CNC(=O)C[C@H](C)CCC=C(C)C)ccc1OCc1cn(-c2ccc(Br)cc2)nn1 — growth percent (COLO 205; SRB; 10 µM, 48 h): 113%
CC(=O)[O-].O.O.O.O.[Ni+2].[O-]c1ccc(Br)cc1C=NCCN1CCOCC1 — inhibition zone diameter (Escherichia coli; 20 µL of 100 µM per disc): 29 mm
O=Cc1c(O)ccc2ccccc12 — log2 fold change (HUVEC; RNA sequencing, item: CD34; 75 µM, 24 h; baseline: DMSO): -3.76
CC(=O)c1c(C)c2cnc(Nc3ccc(N4CCNCC4)cn3)nc2n(C2CCCC2)c1=O — G0/G1 arrest completeness (recombinant CHO cell line; PI flow cytometry; concentration not given): > 96%
C[C@@H](N)C1CCN(S(=O)(=O)c2cccc3cnccc23)CC1 — inhibition (ROCK; MLC2 phosphorylation, inhibitor; HUVEC; 50 µM, 1 h, together with: LPA; baseline: LPA alone): 15%
CC[C@H]1[C@@H](O)[C@@H]2[C@H](CC[C@]3(C)[C@@H]([C@H](C)CCOS(=O)(=O)[O-])CC[C@@H]23)[C@@]2(C)CC[C@@H](O)C[C@@H]12.[Na+] — plasma triglycerides (ob/ob NASH mice, plasma; oral, 10 mg/kg once daily, baseline before treatment, 8 wk study): 0.8 ± 0.1 mmol/L
Cc1sc2ncn(CC(=O)N3CCCC3)c(=O)c2c1-c1cccc(Br)c1 — γ2 conductance level area (NMDA receptor, mouse; single-channel current, outside-out patch; cortical neurons; 50 µM, together with: Ca2+ 0.5 mM): 26%
CCCCCCCCCCCC1N=C(N)N=C(N)N1c1ccc(Cl)cc1 (racemic) — EC50 (membrane disruption; SYTOX Green uptake; Escherichia coli, ATCC 25922): 16 µM

A few entries again:
CC(=O)[O-].O.O.O.O.[Ni+2].[O-]c1ccc(Br)cc1C=NCCN1CCOCC1 — inhibition zone diameter (Escherichia coli; 20 µL of 100 µM per disc): 29 mm
